# Measurements collected from several papers.
# A part holds a random share of what one study measured. Substitutions count along the parent as printed.

# Set 1
# Target: ABI1, truncated, D143A, DHFR fusion (Arabidopsis thaliana)
# Technique: DHFR PCA, deep sequencing
# Medium: yeast
# Setting: methotrexate growth selection, single substitutions
# Together with: (+)-ABA 4.8 µM
# Baseline: wild-type fitted maximum
# Direction: higher = stronger binding
# Starting sequence: PYL1, truncated, DHFR fusion (Arabidopsis thaliana); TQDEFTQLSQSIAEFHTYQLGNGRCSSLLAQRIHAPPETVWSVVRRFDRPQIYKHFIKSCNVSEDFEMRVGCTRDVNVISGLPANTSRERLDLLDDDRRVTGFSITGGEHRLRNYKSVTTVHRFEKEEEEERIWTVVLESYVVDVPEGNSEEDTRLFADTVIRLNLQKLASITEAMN; partner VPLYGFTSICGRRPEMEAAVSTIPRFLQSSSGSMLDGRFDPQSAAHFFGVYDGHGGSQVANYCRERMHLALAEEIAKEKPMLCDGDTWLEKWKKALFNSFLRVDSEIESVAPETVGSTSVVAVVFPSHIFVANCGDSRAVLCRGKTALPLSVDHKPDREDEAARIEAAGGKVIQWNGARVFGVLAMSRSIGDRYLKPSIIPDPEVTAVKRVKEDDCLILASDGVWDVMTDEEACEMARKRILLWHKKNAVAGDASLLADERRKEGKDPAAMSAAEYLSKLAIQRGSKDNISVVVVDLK
Substitution,relative binding score [%]
V70L,35.3
N22R,75.5
V70Q,37.5
F157E,-0.212
G102I,-4.46
Y115F,55.3
I52M,66.5
V161Q,2.3
V118K,53.7
V143G,4.89

# Set 2
# Target: RING finger protein unkempt homolog, zinc fingers 1-6, GST-SBP tag (UNK, Homo sapiens, UniProt Q9C0B0, residues 30-357)
# Sequence of UniProt Q9C0B0 (30-357, looked up): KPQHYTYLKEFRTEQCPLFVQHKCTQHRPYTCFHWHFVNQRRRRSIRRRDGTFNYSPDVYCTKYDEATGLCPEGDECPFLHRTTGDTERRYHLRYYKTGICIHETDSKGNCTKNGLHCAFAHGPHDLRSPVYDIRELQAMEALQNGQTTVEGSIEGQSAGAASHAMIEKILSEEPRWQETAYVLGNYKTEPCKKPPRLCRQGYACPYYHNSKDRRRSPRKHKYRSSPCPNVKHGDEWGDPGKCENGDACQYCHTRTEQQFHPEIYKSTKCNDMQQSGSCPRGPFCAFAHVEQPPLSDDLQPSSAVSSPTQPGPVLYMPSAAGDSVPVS
# Technique: RNA Bind-n-Seq
# Molecule type: RNA
# Medium: in vitro
# Tested at: not given
# Setting: RNA with constant flanks, human and mouse sites, ends assumed
# Baseline: input RNA pool
# Direction: higher = stronger binding
# Shared flanks, not repeated: GGGAGUUCUACAGUCCGACGAUC … CAACAGAGGAUUGAGCAUCA
Strand,bound/input enrichment
GCACCCAGGUCCUAUAGGAUAGCACCUAGGCCAUACAGGUUAGCACCUAGACCCUUGAUGUUAGCAUCUAGACGUUCUAUGAUGAUGUCCUAUGCUGCAGAACGUUCCAUGAUGUCAUCU,0.193 ratio
AUGGCUUCUCUGGACGACCCAGGGGAAGUGAGGGAGGGCUUCCUCUGCCCUCUGUGCCUGAAGGAUCUGCAGUCUUUCUAUCAGCUUCACUCACAUUACGAGGAAGAACACUCAGGGGAA,0.16 ratio
AAAGAAAAUGGAGAUGUAAAGAUUUUACUGAAAAGUGGGAAGGAGAAACCAAAAACAAAUAUAGAAGACUUACAAAUUAAAAAAGUAAAGAAGAAAAAGAAAAAGAAACACAAAGAGAAU,14.6 ratio
CUUACAACAUCAAAGCAUGCUGAGCCCCCAUACAGGAUACCAAGUGACCAGGUCUUUCCUAUAGCUAGGGAAGAAGCACCAAUAAACUUAUCUCUAGGUACUCCAGCACAUGCAGUGACA,0.143 ratio
UCUAGAAGUCACAGUAUCUUCCUGAUAAAUAUUAAACAAGAGAAUGUAGAGACUGAAAAAAAACUCAGUGGGAAACUUUAUUUGGUUGAUUUGGCUGGGAGCGAAAAGGUCAGCAAAACU,0.348 ratio
GAAGAUUUCCUGAAAAAAUGGGAGACCCCUUCUCAGAAUACAGCCCAGUUGGAUCAGUUUGAUAGAAUCAAGACCCUUGGCACCGGCUCCUUUGGGCGAGUGAUGCUGGUGAAGCACAAG,0.447 ratio

# Set 3
# Target: Ras GTPase-activating protein-binding protein 1, RRM domain (G3BP1, Homo sapiens, UniProt Q13283)
# Sequence of UniProt Q13283 (whole entry, looked up): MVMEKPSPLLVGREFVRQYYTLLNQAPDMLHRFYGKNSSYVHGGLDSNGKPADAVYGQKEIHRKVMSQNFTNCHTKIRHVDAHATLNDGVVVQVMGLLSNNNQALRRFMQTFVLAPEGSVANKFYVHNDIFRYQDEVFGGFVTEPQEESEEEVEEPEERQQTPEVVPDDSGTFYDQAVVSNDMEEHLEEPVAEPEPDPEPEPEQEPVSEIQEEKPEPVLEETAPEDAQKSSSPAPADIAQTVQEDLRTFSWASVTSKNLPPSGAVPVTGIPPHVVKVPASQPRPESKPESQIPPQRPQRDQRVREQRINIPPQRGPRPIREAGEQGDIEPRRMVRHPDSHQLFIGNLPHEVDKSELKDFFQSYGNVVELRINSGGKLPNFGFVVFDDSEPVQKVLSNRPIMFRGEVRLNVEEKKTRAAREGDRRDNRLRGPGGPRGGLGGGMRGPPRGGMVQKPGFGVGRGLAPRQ
# Technique: RNA Bind-n-Seq
# Molecule type: RNA
# Medium: in vitro
# Tested at: 1 µM
# Setting: whole 134-nt RNA, ends assumed
# Together with: 150 mM KCl
# Baseline: input library
# Direction: higher = stronger binding
# Shared flanks, not repeated: GGGAGUUCUACAGUCCGACGAUC … UGGAAUUCUCGGGUGUCAAGG
Strand,log2 enrichment
UAACUUUAGAGGAGGAUCUGAAGGAUAUGGCAGUGGACGUGGAUUUGGGGAUGGCUAUAAUGGGUAUGGAGGAGGACCUGGAGGUGGCAA,-0.743
CAAGUCCUGUGCUACACAUCGUAUGUACCGAAUCGGAAAAAAAGGAAAGGAAAGGAAAGUAUUAUGUUACGCCGUUCGGAUCUGCACUUC,-0.133
UCCUCAAGUCCUGUGCUACACAUCGUAUGUACCGAAUCGGGCGGGGCGGCGGAAAGUAUUAUGUUACGCCGUUCGGAUCUGCACUUCCAG,-0.147
UGUGCUACACAUCGUAUGUACCGAAUCGGGGAAAAAAAGGGGAAAAAAAGGGGAAAAAGGGGAAAGUAUUAUGUUACGCCGUUCGGAUCU,0.784
GUCCUGUGCUACACAUCGUAUGUACCGAAUCGGGGUUUUUGGUUUUUGGGUUUUUGGGAAAGUAUUAUGUUACGCCGUUCGGAUCUGCAC,-0.131
GCAGGAAGUAAAAACAAAUGGAAAUGCUUCGGAUAGUGGCAGGGGUGGGGGUUGCUAAGGAAAGGGUGGGAUGGGAGCGGGUAAAGAGUU,1.26
CAAGUCCUGUGCUACACAUCGUAUGUACCGAAUCGGUGGUUUUUGGUUUUUUUGGAAAGUAUUAUGUUACGCCGUUCGGAUCUGCACUUC,-0.217
CUCAAGUCCUGUGCUACACAUCGUAUGUACCGAAUCGGCCCGGGCCCGGCCCGGAAAGUAUUAUGUUACGCCGUUCGGAUCUGCACUUCC,-0.668
UUCUGAGAAGGUUGCGCAGCAGCUGUGCCCGGCAGUCUAGAGGCGCAGAAGAGGAAGCCAUCGCCUGGCCCCGGCUCUCUGGACCUUGUC,-0.741

# Set 4
# Target: Histone acetyltransferase KAT6A, winged helix 2, GST fusion (KAT6A, Homo sapiens, UniProt Q92794, residues 85-181)
# Technique: protein binding microarray
# Molecule type: double-stranded DNA, one strand shown
# Medium: in vitro
# Tested at: not given
# Setting: 8-mer, flanks averaged, mean of 2 arrays, mostly near background
# Baseline: not given
# Direction: higher = stronger binding
# Residues (chain): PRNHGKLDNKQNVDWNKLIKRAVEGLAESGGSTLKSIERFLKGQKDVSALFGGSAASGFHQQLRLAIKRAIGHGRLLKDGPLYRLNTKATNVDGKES
Strand,E-score
CCGATAAA,-0.00431
ACACACTG,-0.0796
ATCTAACG,-0.0562
ATATAGCA,0.075
AGGTTTAA,-0.0738
GCGAAAGA,-0.0223
CAGGAGTA,-0.0135
TAAGCATA,0.113
CCGTTAAG,0.008
CTTTTGTC,0.0263
AACCGGAT,0.0705
ACACCCCG,-0.0815
ACGGAACT,0.0247
AGGGGGAG,0.0479
ATGAGACC,-0.102
AGTAGTGA,-0.094
CTTTTAGA,0.0778
GAGTGCGC,0.0254
ACGAGGAG,0.0223
GTCCTAAC,-0.169
ACAAGGCT,-0.154
GATTTTAA,0.0227
GTAGCCCA,-0.0566
GACAATGC,0.0537
CAAGCCGG,0.197

# Excerpt of the above (set 3):
Strand,log2 enrichment
UAACUUUAGAGGAGGAUCUGAAGGAUAUGGCAGUGGACGUGGAUUUGGGGAUGGCUAUAAUGGGUAUGGAGGAGGACCUGGAGGUGGCAA,-0.743
CAAGUCCUGUGCUACACAUCGUAUGUACCGAAUCGGAAAAAAAGGAAAGGAAAGGAAAGUAUUAUGUUACGCCGUUCGGAUCUGCACUUC,-0.133
UCCUCAAGUCCUGUGCUACACAUCGUAUGUACCGAAUCGGGCGGGGCGGCGGAAAGUAUUAUGUUACGCCGUUCGGAUCUGCACUUCCAG,-0.147
UGUGCUACACAUCGUAUGUACCGAAUCGGGGAAAAAAAGGGGAAAAAAAGGGGAAAAAGGGGAAAGUAUUAUGUUACGCCGUUCGGAUCU,0.784
GUCCUGUGCUACACAUCGUAUGUACCGAAUCGGGGUUUUUGGUUUUUGGGUUUUUGGGAAAGUAUUAUGUUACGCCGUUCGGAUCUGCAC,-0.131
GCAGGAAGUAAAAACAAAUGGAAAUGCUUCGGAUAGUGGCAGGGGUGGGGGUUGCUAAGGAAAGGGUGGGAUGGGAGCGGGUAAAGAGUU,1.26
CAAGUCCUGUGCUACACAUCGUAUGUACCGAAUCGGUGGUUUUUGGUUUUUUUGGAAAGUAUUAUGUUACGCCGUUCGGAUCUGCACUUC,-0.217
